# Measurements gathered from unrelated publications.
# Each line is one published result; not all experiments were run side by side. Positions of bridges follow the written chain, without caps; N, C: chain ends. Ends that are not written are not given here. No end group written: not given here.
# RGS4 residues 52-end: RGS4 residues 52-end 52-205, Alexa Fluor 532 label (Homo sapiens, UniProt P49798)
# Chain of UniProt P49798 (whole entry, unmodified, looked up): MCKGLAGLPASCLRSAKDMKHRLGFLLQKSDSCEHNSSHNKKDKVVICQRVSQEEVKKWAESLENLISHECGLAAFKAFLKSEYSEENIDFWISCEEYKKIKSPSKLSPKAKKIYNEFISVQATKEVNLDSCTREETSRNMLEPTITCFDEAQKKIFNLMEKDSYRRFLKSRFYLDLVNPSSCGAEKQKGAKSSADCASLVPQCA
# RGS4 residues 19-end: RGS4 residues 19-end 19-205, Alexa Fluor 568 label (Rattus norvegicus, UniProt P49799)
# Chain of UniProt P49799 (whole entry, unmodified, looked up): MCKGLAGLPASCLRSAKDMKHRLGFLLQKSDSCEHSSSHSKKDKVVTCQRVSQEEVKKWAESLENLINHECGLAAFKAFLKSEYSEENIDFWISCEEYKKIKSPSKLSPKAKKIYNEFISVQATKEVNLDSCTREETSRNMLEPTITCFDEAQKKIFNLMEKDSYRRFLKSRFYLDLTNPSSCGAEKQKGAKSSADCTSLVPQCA
# B1: LSAMP ectodomain 32-306 (Homo sapiens, UniProt Q13449); chain VDFNRGTDNITVRQGDTAILRCVVEDKNSKVAWLNRSGIIFAGHDKWSLDPRVELEKRHSLEYSLRIQKVDVYDEGSYTCSVQTQHEPKTSQVYLIVQVPPKISNISSDVTVNEGSNVTLVCMANGRPEPVITWRHLTPTGREFEGEEEYLEILGITREQSGKYECKAANEVSSADVKQVKVTVNYPPTITESKSNEATTGRQASLKCEASAVPAPDFEWYRDDTRINSANGLEIKSTEGQSSLTVTNVTEEHYGNYTCVAANKLGVTNASLVLF
# B2: VPS21 (Saccharomyces cerevisiae, UniProt P36017); chain MNTSVTSIKLVLLGEAAVGKSSIVLRFVSNDFAENKEPTIGAAFLTQRVTINEHTVKFEIWDTAGQERFASLAPMYYRNAQAALVVYDVTKPQSFIKARHWVKELHEQASKDIIIALVGNKIDMLQEGGERKVAREEGEKLAEEKGLLFFETSAKTGENVNDVFLGIGEKIPLKTAEEQNSASNERESNNQRVDLNAANDGTSANSACSC
# B3: Nlgn2 43-612 (Rattus norvegicus, UniProt Q62888-1); sequence looked up; chain VVNTAYGRVRGVRRELNNEILGPVVQFLGVPYATPPLGARRFQPPEAPASWPGVRNATTLPPACPQNLHGALPAIMLPVWFTDNLEAAATYVQNQSEDCLYLNLYVPTEDGPLTKKRDEATLNPPDTDIRDSGKKPVMLFLHGGSYMEGTGNMFDGSVLAAYGNVIVATLNYRLGVLGFLSTGDQAAKGNYGLLDQIQALRWLSENIAHFGGDPERITIFGSGAGASCVNLLILSHHSEGLFQKAIAQSGTAISSWSVNYQPLKYTRLLAAKVGCDREDSTEAVECLRRKSSRELVDQDVQPARYHIAFGPVVDGDVVPDDPEILMQQGEFLNYDMLIGVNQGEGLKFVEDSAESEDGVSASAFDFTVSNFVDNLYGYPEGKDVLRETIKFMYTDWADRDNGEMRRKTLLALFTDHQWVAPAVATAKLHADYQSPVYFYTFYHHCQAEGRPEWADAAHGDELPYVFGVPMVGATDLFPCNFSKNDVMLSAVVMTYWTNFAKTGDPNQPVPQDTKFIHTKPNRFEEVVWSKFNSKEKQYLHIGLKPRVRDNYRANKVAFWLELVPHLHNLH
# B4: pum 848-1090 (Drosophila melanogaster, UniProt P25822-1); sequence looked up; chain VPPGATRAGPPPPQGPQLYQPQPQTAQQNLYSQQNGSSVGGLALNTSSLTGRRDSFDRSTSAFSPSTMDYTSSGVAAAANAVNSTVAQAAAAAAAAAAARGKWPGAMSGAASGAYGALGAGNASASPLGAPITPPPSAQSCLLGSRAPGAESRQRQQQQQQLAAVGLPATAAAAQAAVAAAANNMFGSNSSIFSNPLAIPGTAAVAAAAAAAAAANSRQVAATAAAAAAVAAAAGGVGGAPQP
# B5: mmoB 1-138 (Methylosinus trichosporium, UniProt P27356); chain MSSAHNAYNAGIMQKTGKAFADEFFAEENQVVHESNAVVLVLMKSDEIDAIIEDIVLKGGKAKNPSIVVEDKAGFWWIKADGAIEIDAAEAGELLGKPFSVYDLLINVSSTVGRAYTLGTKFTITSELMGLDRALTDI
# B6: rpaA (Synechococcus elongatus, UniProt Q31S42); sequence looked up; chain MKPRILVIDDDSAILELVAVNLEMSGYDVRKAEDGIKGQALAVQLVPDLIMLDLMLPRVDGFTVCQRLRRDERTAEIPVLMLTALGQTQDKVEGFNAGADDYLTKPFEVEEMLARVRALLRRTDRIPHAARHSEILSYGPLTLIPERFEAIWFNRTVKLTHLEFELLHCLLQRHGQTVAPSEILKEVWGYDPDDDIETIRVHIRHLRTKLEPDPRHPRYIKTVYGAGYCLELPAETELHQHADQFPSAS
# B7: AddB 1-1166 D961A (Bacillus subtilis, UniProt P23477); chain MGAEFLVGRSGSGKTKLIINSIQDELRRAPFGKPIIFLVPDQMTFLMEYELAKTPDMGGMIRAQVFSFSRLAWRVLQHTGGMSRPFLTSTGVQMLLRKLIEEHKQEFKVYQKASDKSGFTAQVERMLTEFKRYCLEPEDIRRMAESGTASEYRGERVLSEKLHDLSILYQQMEKSLADQYLHSEDYLTLLAEHIPLAEDIKGAHIYVDGFYQFTPQEFRVLEQLMVHAEHITFSLTADKPSYEREPHELELFRMTGKTYYRLHQKAKELNLDITYKELSGTERHTKTPELAHLEAQYEARPAIPYAEKQEALTVMQAANRRAELEGIAREIHALVREKGYRYKDVAILARQPEDYKDMVKEVFADYEIPYFIDGKASMLNHPLIEFIRSSLDVLKGNWRYEAVFRCVKTELLFPLNEPKAKVREQVDQLENYCIAYGIKGDRWTKGDRFQYRRFVSLDDDFAQTDQEIEMENMLNDTRDWIVPPLFQLQKRMKKAKTVQEKAEALYRYLEETDVPLKLDQERQRAEDDGRIIEAQQHQQAWDAVIQLLEEFVEMMGDDEISLDLFQQMIEAGAESLTFSLIPPALDQVFVGNMDLSRMYGTSCTFVLGANDGVLPARPDENGVLSDDDREWLKTIGVELSSGGRERLLDEHFLIYMAFSSPSDRLYVSYPIADAEGKTLLPSMIVKRLEELFPHHKERLLTNEPEQVSDEEQLMYVVNKSVAQSFTASQLRLWTREYDISDVWWSTYNVLMSEQDRLQSKKLFSSLFFRNEVKQLERSVSRQLYGERIQGSVSRMETFNACPFSHFASHGLHLKERQFFKLEAPDIGQLFHSSLKLISDRLREQKLDWRDLTKEQCELFSYDAVERLAPKLQKEILLSSNRHYYVKEKLQKIVTRVSGILSEHAKASGFVPIGLELGFGGKGPLPPLTFQLKNGCTMELVGRIDRVDKAESSKGLLLRIVAYKSSDKGLDLAEVYYGLALQMLTYLDLSITHSADWLGMRATPAGVLYFHIHDPMIQSNLPLGLDEIEQEIFKKFKMKGLLLGDQEVVRLMDTTLQEGRSNIINAGLKKDGSLRSDSAAVGEKEFDLLTKHVRRTFQEAGEQITDGRVSIEPYKMKNKTPCTYCAFKSVCQFDESLEENEYRPLKAEKDKTILEWIKKEADGNEHS
# B8: apcA (Synechocystis sp. PCC 6803, UniProt Q01951); bilin at Cys81; sequence looked up; chain MSIVTKSIVNADAEARYLSPGELDRIKAFVTGGAARLRIAETLTGSRETIVKQAGDRLFQKRPDIVSPGGNAYGEEMTATCLRDMDYYLRLVTYGVVSGDVTPIEEIGLVGVREMYRSLGTPIEAVAQSVREMKEVASGLMSSDDAAEASAYFDFVIGKMS
# B9: ACAT1 (Homo sapiens, UniProt P24752); sequence looked up; chain VSKPTLKEVVIVSATRTPIGSFLGSLSLLPATKLGSIAIQGAIEKAGIPKEEVKEAYMGNVLQGGEGQAPTRQAVLGAGLPISTPCTTINKVCASGMKAIMMASQSLMCGHQDVMVAGGMESMSNVPYVMNRGSTPYGGVKLEDLIVKDGLTDVYNKIHMGSCAENTAKKLNIARNEQDAYAINSYTRSKAAWEAGKFGNEVIPVTVTVKGQPDVVVKEDEEYKRVDFSKVPKLKTVFQKENGTVTAANASTLNDGAAALVLMTADAAKRLNVTPLARIVAFADAAVEPIDFPIAPVYAASMVLKDVGLKKEDIAMWEVNEAFSLVVLANIKMLEIDPQKVNINGGAVSLGHPIGMSGARIVGHLTHALKQGEYGLASICNGGGGASAMLIQKL
# Chain of UniProt P40013 (whole entry, looked up): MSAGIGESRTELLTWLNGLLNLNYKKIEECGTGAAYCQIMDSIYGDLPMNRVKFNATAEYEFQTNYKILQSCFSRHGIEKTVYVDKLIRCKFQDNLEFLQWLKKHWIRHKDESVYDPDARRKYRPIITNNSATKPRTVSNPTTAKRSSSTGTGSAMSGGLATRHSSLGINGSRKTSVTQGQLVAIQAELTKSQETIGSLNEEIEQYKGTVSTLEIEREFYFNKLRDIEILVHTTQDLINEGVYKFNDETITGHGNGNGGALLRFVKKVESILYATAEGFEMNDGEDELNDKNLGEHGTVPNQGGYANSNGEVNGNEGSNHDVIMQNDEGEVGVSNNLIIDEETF
# Chain of UniProt Q9P0J1 (whole entry, looked up): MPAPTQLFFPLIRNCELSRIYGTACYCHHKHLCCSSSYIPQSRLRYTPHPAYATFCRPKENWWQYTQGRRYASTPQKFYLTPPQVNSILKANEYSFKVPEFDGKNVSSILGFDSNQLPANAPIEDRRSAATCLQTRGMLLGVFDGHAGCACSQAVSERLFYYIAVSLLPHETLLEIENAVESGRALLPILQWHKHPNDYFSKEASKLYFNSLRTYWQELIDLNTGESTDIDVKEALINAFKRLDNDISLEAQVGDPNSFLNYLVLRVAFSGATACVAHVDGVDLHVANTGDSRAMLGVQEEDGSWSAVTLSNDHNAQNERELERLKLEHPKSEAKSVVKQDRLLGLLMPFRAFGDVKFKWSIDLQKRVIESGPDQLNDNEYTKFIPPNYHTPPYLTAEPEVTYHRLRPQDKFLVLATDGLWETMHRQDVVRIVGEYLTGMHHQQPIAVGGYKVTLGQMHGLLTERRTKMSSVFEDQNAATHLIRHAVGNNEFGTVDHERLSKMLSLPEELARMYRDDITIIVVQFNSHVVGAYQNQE
# Chain of UniProt Q06904 (whole entry, looked up): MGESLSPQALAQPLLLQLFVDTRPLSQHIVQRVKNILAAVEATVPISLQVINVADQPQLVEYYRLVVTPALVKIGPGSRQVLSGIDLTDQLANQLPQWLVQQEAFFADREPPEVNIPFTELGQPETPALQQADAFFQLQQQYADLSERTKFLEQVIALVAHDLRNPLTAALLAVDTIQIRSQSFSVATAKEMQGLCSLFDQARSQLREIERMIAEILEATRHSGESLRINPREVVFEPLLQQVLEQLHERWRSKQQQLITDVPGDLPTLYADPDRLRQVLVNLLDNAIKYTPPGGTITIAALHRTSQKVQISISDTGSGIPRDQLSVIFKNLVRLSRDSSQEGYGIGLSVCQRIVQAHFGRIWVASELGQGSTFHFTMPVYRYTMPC
# Chain of UniProt P32526 (whole entry, unmodified, looked up): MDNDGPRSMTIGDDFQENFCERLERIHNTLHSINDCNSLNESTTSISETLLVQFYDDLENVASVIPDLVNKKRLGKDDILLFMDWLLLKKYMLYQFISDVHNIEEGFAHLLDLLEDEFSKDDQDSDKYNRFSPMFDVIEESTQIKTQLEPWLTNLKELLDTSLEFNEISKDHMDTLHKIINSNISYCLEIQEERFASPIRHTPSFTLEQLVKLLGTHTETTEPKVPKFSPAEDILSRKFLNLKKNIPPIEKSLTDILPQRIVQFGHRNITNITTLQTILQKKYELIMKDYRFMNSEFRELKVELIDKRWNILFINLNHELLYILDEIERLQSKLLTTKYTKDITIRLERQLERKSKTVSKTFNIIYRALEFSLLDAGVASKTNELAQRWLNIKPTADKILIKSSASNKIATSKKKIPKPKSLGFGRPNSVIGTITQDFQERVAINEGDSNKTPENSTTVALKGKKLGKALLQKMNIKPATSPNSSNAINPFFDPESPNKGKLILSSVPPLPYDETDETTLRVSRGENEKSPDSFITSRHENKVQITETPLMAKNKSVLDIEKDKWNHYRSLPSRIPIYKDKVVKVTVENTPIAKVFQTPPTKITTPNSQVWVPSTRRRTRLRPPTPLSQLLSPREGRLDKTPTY
# Chain of UniProt P40003 (whole entry, looked up): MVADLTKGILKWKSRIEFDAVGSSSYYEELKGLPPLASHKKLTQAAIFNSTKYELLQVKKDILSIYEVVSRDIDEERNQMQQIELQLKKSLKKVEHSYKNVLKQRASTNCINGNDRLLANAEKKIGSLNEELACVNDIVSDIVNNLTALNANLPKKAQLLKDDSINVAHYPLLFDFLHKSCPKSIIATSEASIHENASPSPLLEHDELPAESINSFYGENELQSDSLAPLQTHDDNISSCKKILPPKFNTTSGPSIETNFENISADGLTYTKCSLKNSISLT
# Chain of UniProt Q99816 (whole entry, unmodified, looked up): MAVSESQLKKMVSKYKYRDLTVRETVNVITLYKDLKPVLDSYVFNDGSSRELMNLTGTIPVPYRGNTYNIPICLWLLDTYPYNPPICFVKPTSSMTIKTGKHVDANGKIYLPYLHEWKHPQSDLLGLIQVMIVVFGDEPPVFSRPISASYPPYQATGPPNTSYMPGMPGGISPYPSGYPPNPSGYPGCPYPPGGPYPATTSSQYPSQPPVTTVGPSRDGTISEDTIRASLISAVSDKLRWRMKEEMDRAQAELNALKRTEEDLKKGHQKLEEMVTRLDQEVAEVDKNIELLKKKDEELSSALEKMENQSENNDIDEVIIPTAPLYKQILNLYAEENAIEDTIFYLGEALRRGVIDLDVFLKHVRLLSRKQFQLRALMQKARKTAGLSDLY
# Chain of UniProt Q55544 (whole entry, looked up): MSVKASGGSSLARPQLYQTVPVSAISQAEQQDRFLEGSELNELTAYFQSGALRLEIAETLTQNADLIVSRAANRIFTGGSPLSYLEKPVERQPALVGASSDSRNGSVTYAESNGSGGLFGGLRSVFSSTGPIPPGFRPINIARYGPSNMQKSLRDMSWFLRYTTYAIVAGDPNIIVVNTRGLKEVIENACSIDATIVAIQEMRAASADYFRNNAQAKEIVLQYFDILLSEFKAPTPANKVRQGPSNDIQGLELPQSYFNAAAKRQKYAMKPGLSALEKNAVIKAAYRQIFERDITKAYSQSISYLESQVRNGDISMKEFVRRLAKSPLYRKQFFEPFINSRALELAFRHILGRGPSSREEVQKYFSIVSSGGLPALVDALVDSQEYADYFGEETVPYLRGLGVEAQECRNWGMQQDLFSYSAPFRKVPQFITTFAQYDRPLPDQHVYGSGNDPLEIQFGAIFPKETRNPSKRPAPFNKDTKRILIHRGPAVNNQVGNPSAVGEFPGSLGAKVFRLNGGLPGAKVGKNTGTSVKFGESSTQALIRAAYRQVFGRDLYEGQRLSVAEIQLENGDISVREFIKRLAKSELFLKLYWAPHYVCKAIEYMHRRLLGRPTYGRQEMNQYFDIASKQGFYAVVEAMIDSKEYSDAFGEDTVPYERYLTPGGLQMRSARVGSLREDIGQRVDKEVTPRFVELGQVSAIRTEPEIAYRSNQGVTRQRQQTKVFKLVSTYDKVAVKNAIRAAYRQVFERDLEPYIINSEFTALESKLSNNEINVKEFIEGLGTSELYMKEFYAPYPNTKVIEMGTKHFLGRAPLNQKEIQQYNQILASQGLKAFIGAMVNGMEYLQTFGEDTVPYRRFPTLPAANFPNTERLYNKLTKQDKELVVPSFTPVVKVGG
# Chain of UniProt Q9H900 (whole entry, looked up): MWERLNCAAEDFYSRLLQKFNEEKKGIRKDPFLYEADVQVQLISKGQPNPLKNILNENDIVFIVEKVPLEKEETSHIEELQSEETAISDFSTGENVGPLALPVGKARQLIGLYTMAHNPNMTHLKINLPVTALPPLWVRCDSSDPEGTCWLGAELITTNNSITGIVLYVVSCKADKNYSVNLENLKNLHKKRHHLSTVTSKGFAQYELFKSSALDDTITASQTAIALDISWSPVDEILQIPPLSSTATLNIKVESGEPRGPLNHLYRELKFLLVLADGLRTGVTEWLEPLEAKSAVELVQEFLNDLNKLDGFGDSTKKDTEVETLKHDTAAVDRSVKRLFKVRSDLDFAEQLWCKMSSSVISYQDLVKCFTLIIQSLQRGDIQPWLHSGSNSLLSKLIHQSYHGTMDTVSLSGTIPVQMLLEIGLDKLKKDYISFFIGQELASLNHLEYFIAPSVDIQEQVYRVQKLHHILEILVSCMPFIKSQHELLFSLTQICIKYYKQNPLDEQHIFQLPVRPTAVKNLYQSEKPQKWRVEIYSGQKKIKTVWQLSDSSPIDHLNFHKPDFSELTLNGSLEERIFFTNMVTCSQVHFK
# Chain of UniProt Q7Z3B1 (whole entry, looked up): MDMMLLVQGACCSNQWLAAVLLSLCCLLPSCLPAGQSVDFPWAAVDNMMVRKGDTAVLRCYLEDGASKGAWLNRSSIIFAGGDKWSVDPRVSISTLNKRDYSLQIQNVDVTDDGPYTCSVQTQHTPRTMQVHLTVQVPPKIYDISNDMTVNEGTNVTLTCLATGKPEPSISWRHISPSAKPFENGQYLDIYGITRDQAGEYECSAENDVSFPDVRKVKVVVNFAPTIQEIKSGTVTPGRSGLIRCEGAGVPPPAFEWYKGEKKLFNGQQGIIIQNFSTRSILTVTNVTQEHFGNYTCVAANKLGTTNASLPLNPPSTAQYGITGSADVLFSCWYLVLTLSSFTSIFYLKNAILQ
Substance,tested on,test,system,conditions,endpoint,result
Ac-LVCKGYCQ-NH2 (designed peptide; disulfide 3-7; SMILES CC(=O)N[C@@H](CC(C)C)C(=O)N[C@H](C(=O)N[C@H]1CSSC[C@@H](C(=O)N[C@@H](CCC(N)=O)C(N)=O)NC(=O)[C@H](Cc2ccc(O)cc2)NC(=O)CNC(=O)[C@H](CCCCN)NC1=O)C(C)C; N-acetyl/C-amide/cyclic disulfide Cys3-Cys7),RGS4 residues 52-end,flow cytometry,peptide,room temperature,binding,binds
"ZWILCH (Homo sapiens, UniProt Q9H900)","MAD1L1/MAD2L1, pS546 on MAD1 (Homo sapiens)",pull-down,,,binding,binds
"BIM1 (Saccharomyces cerevisiae, UniProt P40013)","KAR9 A196E/S197E/S332E/S429E/S496E (Saccharomyces cerevisiae, UniProt P32526)",fluorescence correlation spectroscopy,,"pH 7.5, NaCl 350 mM, phosphomimetic",binding,binds
"UGT1A9 (Homo sapiens, UniProt O60656)",COc1cc(-c2cc(=O)c3c(O)cc(O)cc3o2)ccc1O,steady-state kinetics,,"pH 7.4, 37 °C",Vmax/Km,3040 µL/min/mg
B1 (LSAMP ectodomain 32-306),"NEGR1 ectodomain 38-313 (Homo sapiens, UniProt Q7Z3B1)",SPR,,,binding,binds
H-LVCKGYCQ-NH2 (designed peptide; disulfide 3-7; SMILES CC(C)C[C@H](N)C(=O)N[C@H](C(=O)N[C@H]1CSSC[C@@H](C(=O)N[C@@H](CCC(N)=O)C(N)=O)NC(=O)[C@H](Cc2ccc(O)cc2)NC(=O)CNC(=O)[C@H](CCCCN)NC1=O)C(C)C; free N-terminus/C-amide/cyclic disulfide Cys3-Cys7),RGS4 residues 52-end,flow cytometry,peptide,room temperature,binding,binds
B2 (VPS21),"BLOC-1 hexamer (Saccharomyces cerevisiae, UniProt P40003)",pull-down,,with: GTPγS,binding,binds
Ac-PTPSAPVPL (Hrs peptide 346-354 (Homo sapiens); N-terminal acetyl),"TSG101 UEV domain 2-145 del43-48 insertion GTG (Homo sapiens, UniProt Q99816)",crystal structure,peptide,,binding,binds
"KLCHGYCH-NH2 (designed peptide; disulfide 3-7; also: on OBOC bead: half N-acetylated, half free N-terminus; half N-acetyl, half free N-terminus/C-amide/cyclic disulfide Cys3-Cys7)",RGS4 residues 19-end,fluorescence imaging of beads,peptide,,binding,binds
B3 (Nlgn2 43-612),MDGA1 ectodomain 22-920 T333C/Y519C (Homo sapiens),SPR,,"25 °C, NaCl 150 mM",binding,binds
B4 (pum 848-1090),CNOT1/CNOT2/CNOT3/CNOT10/CNOT11/CNOT7/CNOT6/CNOT9 CCR4-NOT complex 1-2376 (Homo sapiens),pull-down,,,binding,binds
"KHCYGFCK-NH2 (designed peptide; disulfide 3-7; also: on OBOC bead: half N-acetylated, half free N-terminus; C-amide, Cys3-Cys7 disulfide, N-acetyl partial)",RGS4 residues 19-end,fluorescence imaging of beads,peptide,,binding,binds
"Bmper (Mus musculus, UniProt Q8CJ69)",CHRD/BMP4 full length complex (Xenopus laevis/Homo sapiens),co-IP,,with: BMP4,binding,binds
Ac-KLCHGYCH-NH2 (designed peptide; disulfide 3-7; SMILES CC(=O)N[C@@H](CCCCN)C(=O)N[C@@H](CC(C)C)C(=O)N[C@H]1CSSC[C@@H](C(=O)N[C@@H](Cc2c[nH]cn2)C(N)=O)NC(=O)[C@H](Cc2ccc(O)cc2)NC(=O)CNC(=O)[C@H](Cc2c[nH]cn2)NC1=O; N-acetyl/C-amide/cyclic disulfide Cys3-Cys7),RGS4 residues 52-end,flow cytometry,peptide,room temperature,binding,binds
SQSVLYS,,,"peptide, human polyclonal IgM RF ABR","concentration not given, 5 µg/mL mAb II-481 coated, with: RF at 50% max binding concentration",inhibition,6%
B5 (mmoB 1-138),"mmoX (Methylosinus trichosporium, UniProt P27353)",crystal structure,,pH 7,binding,binds
B6 (rpaA),"sasA (Synechococcus elongatus, UniProt Q06904)",fluorescence polarisation,,without KaiC,binding,binds
AAEDWCKKGDT,,,"peptide, human polyclonal IgM RF SOR","concentration not given, 5 µg/mL mAb II-481 coated, with: RF at 50% max binding concentration",inhibition,0%
B7 (AddB 1-1166 D961A),"addA 1-1232 D1172A (Bacillus subtilis, UniProt P23478)",crystal structure,,,binding,binds
B8 (apcA),"apcE, phycocyanobilin (Synechocystis sp. PCC 6803, UniProt Q55544)",cross-linking,,,binding,binds
B9 (ACAT1),"PDP1 GST fusion, pY381 (UniProt Q9P0J1)",pull-down,,phosphorylated partner,binding,binds

# For quick reference, copied from above:
Substance,tested on,test,system,conditions,endpoint,result
B2 (VPS21),"BLOC-1 hexamer (Saccharomyces cerevisiae, UniProt P40003)",pull-down,,with: GTPγS,binding,binds
